# Assay results from different studies.
# Compare with care: the assays were run in different laboratories.
# Organism: Enterococcus faecalis
SMILES,assay,test system,conditions,MIC
O=C1c2ccccc2NC(c2ccc([N+](=O)[O-])cc2)N1/N=C/c1ccc([N+](=O)[O-])cc1 (stereo not shown),broth microdilution,"VRE 368, vancomycin-resistant, brain-heart infusion",24 h,> 256 mg/L
CN1C(=O)[C@@H]2NC(=O)[C@@H]3NC(=O)[C@@H](c4ccc(O)cc4)NC(=O)[C@H](NC(=O)C(N)c4ccc(O)cc4)Cc4c[nH]c5cc(ccc45)-c4cc3cc(c4O)Oc3ccc(cc3)C[C@H]1C(=O)N[C@@H](C(=O)NCCC[N+](C)(C)C)c1ccc(O)c(c1)Oc1ccc2cc1 (stereo partly shown),,brain heart infusion medium,,16 mg/L
CN[C@@H]1[C@H](O)[C@H](NC)[C@H]2O[C@]3(O)[C@H](O[C@@H]2[C@H]1O)O[C@H](C)C[C@@]3(O)CNCc1ccc(F)cc1,,ATCC 33186,,12.5 to 25 mg/L
O=[N+]([O-])c1ccc2c(c1)C=[N+]1N3C(=[O+][Cu-2]1([Cl])[O]2)c1ccccc1NC3c1cc([N+](=O)[O-])ccc1O (stereo not shown),broth microdilution,vancomycin-resistant 725 B,24 h,256 mg/L
CC(C)[C@H](NC(=O)[C@H](CCCNC(=N)N)NC(=O)[C@H](CCCNC(=N)N)NC(=O)[C@@H](NC(=O)[C@H](C)NC(=O)[C@H](CC(N)=O)NC(=O)[C@H](CCCNC(=N)N)NC(=O)[C@@H](NC(=O)[C@H](CCCNC(=N)N)NC(=O)[C@H](CCCNC(=N)N)NC(=O)[C@@H](NC(=O)[C@@H](NC(=O)[C@H](CCCNC(=N)N)NC(=O)[C@H](CCCNC(=N)N)NC(=O)[C@H](Cc1c[nH]c2ccccc12)NC(=O)[C@H](Cc1c[nH]c2ccccc12)NC(=O)CN)[C@@H](C)O)C(C)C)C(C)C)C(C)C)C(=O)O,,clinical strain,"18 h, 37 °C",32 mg/L
CC[C@H](C)[C@H](NC(=O)[C@@H](Cc1ccccc1)NC)C(=O)N[C@@H](CO)C(=O)N[C@H](CCC(N)=O)C(=O)N[C@@H](C(=O)N[C@H](C(=O)N[C@@H](CO)C(=O)N[C@H]1C(=O)N[C@@H](C)C(=O)N[C@@H](C2CCCCC2)C(=O)N[C@@H]([C@@H](C)CC)C(=O)O[C@H]1C)[C@@H](C)CC)[C@@H](C)CC,broth microdilution,"ATCC 51299, vancomycin-resistant, brain heart infusion broth","16 h, 37 °C",1 mg/L
O=C(NC12CC3CC(CC(C3)C1)C2)c1cc2cc(Cl)ccc2[nH]1,"microbial growth, broth dilution",,,> 64 µM
CCCCCCCCCCCNC(C(=O)N[C@@H]1Cc2c[nH]c3cc(ccc23)-c2cc3cc(c2O)Oc2ccc(cc2)C[C@H]2C(=O)N[C@@H](C(=O)O)c4ccc(O)c(c4)Oc4ccc(cc4)[C@@H](NC(=O)[C@@H]3NC(=O)[C@@H](c3ccc(O)cc3)NC1=O)C(=O)N2C)c1ccc(O)cc1 (stereo partly shown),,brain heart infusion medium,,4 to 8 mg/L
CNc1nc(SC)nc2ccccc12,"microbial growth, broth dilution",,,> 64 µM
CN[C@@H]1[C@H](O)[C@H](NC)[C@H]2O[C@]3(O)[C@H](O[C@@H]2[C@H]1O)O[C@H](C)C[C@]3(O)CNCc1ccc(OC(F)(F)F)cc1,,ATCC 33186,,> 200 mg/L
COc1ccc2nc(C)cc(OCC(=O)Nc3ccccc3OC)c2c1,"microbial growth, broth dilution",,,64 µM
CN1C(=O)[C@@H]2NC(=O)[C@@H]3NC(=O)[C@@H](c4ccc(O)cc4)NC(=O)[C@H](NC(=O)C(NCc4cc(O)cc(O)c4)c4ccc(O)cc4)Cc4c[nH]c5cc(ccc45)-c4cc3cc(c4O)Oc3ccc(cc3)C[C@H]1C(=O)N[C@@H](C(=O)O)c1ccc(O)c(c1)Oc1ccc2cc1 (stereo partly shown),,brain heart infusion medium,,4 mg/L
Oc1ccccc1C1Nc2ccccc2C2=[O+][Cu-2]3([Cl])[O]c4ccccc4C=[N+]3N21 (stereo not shown),broth microdilution,vancomycin-resistant 725 B,24 h,256 mg/L
N=C(N)NCCC[C@H](NC(=O)[C@H](Cc1c[nH]c2ccccc12)NC(=O)[C@H](CCC(N)=O)NC(=O)[C@H](Cc1c[nH]c2ccccc12)NC(=O)[C@H](CCCNC(=N)N)NC(=O)[C@H](Cc1c[nH]c2ccccc12)NC(=O)[C@H](CCC(N)=O)NC(=O)[C@H](Cc1c[nH]c2ccccc12)NC(=O)[C@@H](N)CCCNC(=N)N)C(=O)NCCCC[C@H](NC(=O)[C@H](CCCNC(=N)N)NC(=O)[C@H](Cc1c[nH]c2ccccc12)NC(=O)[C@H](CCC(N)=O)NC(=O)[C@H](Cc1c[nH]c2ccccc12)NC(=O)[C@H](CCCNC(=N)N)NC(=O)[C@H](Cc1c[nH]c2ccccc12)NC(=O)[C@H](CCC(N)=O)NC(=O)[C@H](Cc1c[nH]c2ccccc12)NC(=O)[C@@H](N)CCCNC(=N)N)C(=O)NCCCCCC(N)=O,broth microdilution,ATCC 29212,"24 h, 37 °C",31 µM
Cc1ccc2nc(C(F)(F)F)c(C(=O)NCc3cccc(Cl)c3)n2c1,"microbial growth, broth dilution",,,64 µM
CC(C)[C@H](NC(=O)[C@H](CCCCN)NC(=O)[C@H](CCCNC(=N)N)NC(=O)[C@@H](NC(=O)[C@H](C)NC(=O)[C@H](CC(N)=O)NC(=O)[C@H](CCCNC(=N)N)NC(=O)[C@@H](NC(=O)[C@H](CCCCN)NC(=O)[C@H](CCCCN)NC(=O)[C@@H](NC(=O)[C@@H](NC(=O)[C@H](CCCNC(=N)N)NC(=O)[C@H](CCCNC(=N)N)NC(=O)[C@H](Cc1c[nH]c2ccccc12)NC(=O)[C@H](Cc1c[nH]c2ccccc12)NC(=O)CN)[C@@H](C)O)C(C)C)C(C)C)C(C)C)C(=O)O,,clinical strain,"18 h, 37 °C",16 mg/L
CN1C(=O)[C@@H]2NC(=O)[C@@H]3NC(=O)[C@@H](c4ccc(O)cc4)NC(=O)[C@H](NC(=O)C(NCc4ccsc4)c4ccc(O)cc4)Cc4c[nH]c5cc(ccc45)-c4cc3cc(c4O)Oc3ccc(cc3)C[C@H]1C(=O)N[C@@H](C(=O)O)c1ccc(O)c(c1)Oc1ccc2cc1 (stereo partly shown),,brain heart infusion medium,,4 mg/L
COc1cccc(C2Nc3ccccc3C3=[O+][Cu-2]4([Cl])[O]c5c(cccc5OC)C=[N+]4N32)c1O (stereo not shown),broth microdilution,vancomycin-resistant 368,24 h,> 256 mg/L
CC[C@@H](C)[C@@H](NC(=O)[C@@H](C)NC(=O)[C@@H](CCCCN)NC(=O)[C@@H](CC(C)C)NC(=O)[C@@H](C)NC(=O)[C@H](NC(=O)[C@@H](Cc1c[nH]cn1)NC(=O)[C@@H](CC(C)C)NC(=O)[C@H](NC(=O)[C@H](NC(=O)[C@@H](CCCCN)NC(=O)[C@@H](CCCCN)NC(=O)[C@@H](C)NC(=O)[C@@H](CO)NC(=O)[C@@H](CCCCN)NC(=O)[C@@H](Cc1ccccc1)NC(=O)[C@H](NC(=O)[C@@H](CCCCN)NC(=O)[C@@H](CC(C)C)NC(=O)[C@@H](Cc1ccccc1)NC(=O)[C@@H](CO)NC(=O)[C@@H](CCCCN)NC(=O)[C@@H](Cc1c[nH]c2ccccc12)NC(=O)[C@@H](CCCCN)NC(C)=O)[C@H](C)O)[C@H](C)O)C(C)C)[C@H](C)O)C(=O)N[C@H](CO)C(=O)N[C@H](CO)C(N)=O,,ATCC 29212,,32 mg/L
O=C1c2ccccc2NC(c2ccccc2O)N1/N=C/c1ccccc1O (stereo not shown),broth microdilution,"VRE 368, vancomycin-resistant, brain-heart infusion",24 h,> 256 mg/L
CNC(CC(C)C)C(=O)NC1C(=O)NC(CC(N)=O)C(=O)NC2C(=O)NC3C(=O)NC(C(=O)NC(C(=O)O)c4cc(O)cc(O)c4-c4cc3ccc4O)C(O)c3ccc(c(Cl)c3)Oc3cc2cc(c3OC2OC(CO)C(O)C(O)C2OC2CC(C)(NCc3ccc(-c4ccc(Cl)cc4)cc3)C(O)C(C)O2)Oc2ccc(cc2Cl)C1O (stereo not shown),broth microdilution,BM 4166 VanA,,5 mg/L
COc1cc(/C=N/N2C(=O)c3ccccc3NC2c2cc(OC)c(O)c(OC)c2)cc(OC)c1O (stereo not shown),broth microdilution,"VRE 368, vancomycin-resistant, brain-heart infusion",24 h,> 256 mg/L
Cc1ccc2nc(C)c(C(=O)NCc3cccs3)n2c1,"microbial growth, broth dilution",,,> 64 µM
CN1C(=O)[C@@H]2NC(=O)[C@@H]3NC(=O)[C@@H](c4ccc(O)cc4)NC(=O)[C@H](NC(=O)C(NCc4cccc(F)c4F)c4ccc(O)cc4)Cc4c[nH]c5cc(ccc45)-c4cc3cc(c4O)Oc3ccc(cc3)C[C@H]1C(=O)N[C@@H](C(=O)O)c1ccc(O)c(c1)Oc1ccc2cc1 (stereo partly shown),,brain heart infusion medium,,16 mg/L
O=C1c2ccccc2NC(c2ccc(Cl)c([N+](=O)[O-])c2)N1/N=C/c1ccc(Cl)c([N+](=O)[O-])c1 (stereo not shown),broth microdilution,"VRE 368, vancomycin-resistant, brain-heart infusion",24 h,> 256 mg/L
CN1C(=O)[C@@H]2NC(=O)[C@@H]3NC(=O)[C@@H](c4ccc(O)cc4)NC(=O)[C@H](NC(=O)C(NCc4ccccn4)c4ccc(O)cc4)Cc4c[nH]c5cc(ccc45)-c4cc3cc(c4O)Oc3ccc(cc3)C[C@H]1C(=O)N[C@@H](C(=O)O)c1ccc(O)c(c1)Oc1ccc2cc1 (stereo partly shown),,brain heart infusion medium,,16 mg/L
CC1=C[C@@]2(C)C(=C(C)[C@H]3[C@@H]4C[C@H](C)C[C@H](C)[C@H]4[C@H]4Oc5ccc(cc5)C[C@]5(O)NC(=O)[C@]6(O[C@H]65)C(=O)[C@@H]2[C@@H]43)[C@H]1C,"microbial growth, broth dilution",ATCC51299,drug-resistant strain,3.1 µM
CN1C(=O)[C@@H]2NC(=O)[C@@H]3NC(=O)[C@@H](c4ccc(O)cc4)NC(=O)[C@H](NC(=O)C(NCc4ccc(O)c(O)c4O)c4ccc(O)cc4)Cc4c[nH]c5cc(ccc45)-c4cc3cc(c4O)Oc3ccc(cc3)C[C@H]1C(=O)N[C@@H](C(=O)O)c1ccc(O)c(c1)Oc1ccc2cc1 (stereo partly shown),,brain heart infusion medium,,8 mg/L
CC[C@H](C)[C@H](NC(=O)[C@@H](Cc1ccccc1)NC)C(=O)OC[C@H](N)C(=O)N[C@H](CCCNC(=N)N)C(=O)N[C@@H](C(=O)N[C@H](C(=O)OC[C@H](N)C(=O)N[C@H]1C(=O)N[C@@H](C)C(=O)N[C@@H](CC(C)C)C(=O)N[C@@H]([C@@H](C)CC)C(=O)O[C@H]1C)[C@@H](C)CC)[C@@H](C)CC,broth microdilution,"ATCC 51299, vancomycin-resistant, brain heart infusion broth","16 h, 37 °C",1 to 2 mg/L
CCCCCCCCCCCCCCCCSCC1OC(OC2C(N)CC(N)C(OC3OC(CN)C(O)CC3N)C2O)C(O)C(N)C1O (stereo not shown),,ATCC 29212,,18.8 mg/L
CN1C(=O)[C@@H]2NC(=O)[C@@H]3NC(=O)[C@@H](c4ccc(O)cc4)NC(=O)[C@H](NC(=O)C(NCc4cc(C(F)(F)F)cc(C(F)(F)F)c4)c4ccc(O)cc4)Cc4c[nH]c5cc(ccc45)-c4cc3cc(c4O)Oc3ccc(cc3)C[C@H]1C(=O)N[C@@H](C(=O)O)c1ccc(O)c(c1)Oc1ccc2cc1 (stereo partly shown),,brain heart infusion medium,,8 mg/L

# A few entries again:
SMILES,assay,test system,conditions,MIC
O=[N+]([O-])c1ccc2c(c1)C=[N+]1N3C(=[O+][Cu-2]1([Cl])[O]2)c1ccccc1NC3c1cc([N+](=O)[O-])ccc1O (stereo not shown),broth microdilution,vancomycin-resistant 725 B,24 h,256 mg/L
CC(C)[C@H](NC(=O)[C@H](CCCNC(=N)N)NC(=O)[C@H](CCCNC(=N)N)NC(=O)[C@@H](NC(=O)[C@H](C)NC(=O)[C@H](CC(N)=O)NC(=O)[C@H](CCCNC(=N)N)NC(=O)[C@@H](NC(=O)[C@H](CCCNC(=N)N)NC(=O)[C@H](CCCNC(=N)N)NC(=O)[C@@H](NC(=O)[C@@H](NC(=O)[C@H](CCCNC(=N)N)NC(=O)[C@H](CCCNC(=N)N)NC(=O)[C@H](Cc1c[nH]c2ccccc12)NC(=O)[C@H](Cc1c[nH]c2ccccc12)NC(=O)CN)[C@@H](C)O)C(C)C)C(C)C)C(C)C)C(=O)O,,clinical strain,"18 h, 37 °C",32 mg/L
